Measurements collected from several papers.
Compare with care: the assays were run in different laboratories. “And” joins repeats or separate records; there may be more than shown. Numbers after ± are the reported error.

SMILES = CCn1cc(-c2cc(Cn3ccoc3=N)cc3c2CCN([C@@H](C)c2cc(OC)ccn2)C3=O)c(C(F)(F)F)n1; cell line = NUGC-3; assay = cell growth, inhibitor; setting = 120 h; endpoint = EC50; value = 0.0077 µM
SMILES = CCCCN1C[C@H](O)[C@@H](O)[C@H](O)[C@H]1CO; cell line = THP-1; assay = pyroptotic LDH release; setting = 2 µM, 40 min, together with: LPS then nigericin; endpoint = inhibition; value = 6.54%
SMILES = CC(C)(C)NC(=O)c1cncn1C1CCN(c2ccc(-c3nnc(C(F)(F)F)o3)cn2)CC1; cell line = HDMEC; assay = qPCR, item: TSC22D2; setting = concentration not given, unit not given; scale = reference: DMSO; endpoint = mRNA level; value = 1.62
SMILES = O=C(C[C@@H](C(F)F)n1ccc(F)n1)N1CCC(O)(Cn2cnc3c(cnn3-c3ccc(F)cc3)c2=O)CC1; cell line = CHP-212 parental; assay = annexin V/PI flow cytometry; setting = 1 µM, 48 h; endpoint = early apoptotic cells; value = 31% and 27.7% and 36.1%
SMILES = CN(Cc1ccc(S(=O)(=O)N2CCOCC2)cc1)c1ccc2c3c(cccc13)C(=N)N2; cell line = HEK293T ATF4-FLuc reporter; assay = ATF4 reporter gene, activator, luciferase reporter; endpoint = EC50; value = 1.94 µM
SMILES = Cn1c([N+](=O)[O-])cnc1COC(N)=O; cell line = THP-1; assay = pyroptotic LDH release; setting = 2 µM, 40 min, together with: LPS then nigericin; endpoint = inhibition; value = -6.33%
SMILES = CCn1cc(-c2cc(Cn3ccnc3)cc3c2CCN([C@H](c2cc(OC)ccn2)C2CC2)C3=O)c(C(F)(F)F)n1; cell line = JHUEM7; assay = cell growth; setting = 120 h; endpoint = EC50; value = 3.33 µM
SMILES = Cc1cccc(-c2[nH]c(CNc3ccccc3F)nc2-c2ccc3ncnn3c2)n1; cell line = bone marrow CD138+ myeloma cells; assay = XTT; setting = 0.8 µM, mean of three patients; endpoint = viability; value = 20%
SMILES = C[C@H](CS)C(=O)N1CCC[C@H]1C(=O)O; cell line = HUVEC; assay = annexin V/PI flow cytometry; setting = 10, 100, 1 µM, together with: angiotensin II; scale = reference: angiotensin II alone; endpoint = apoptotic cells; value = 38 % decrease
SMILES = Cc1nc2cnccc2n1-c1ccc(OCc2cccc(/C=C/c3nc4cc(F)ccc4s3)c2)cc1; cell line = HEK293T ATF4-FLuc reporter; assay = ATF4 reporter gene, activator, luciferase reporter; endpoint = EC50; value = > 9.96 µM
SMILES = O=C(O)/C=C/c1ccc(O)c(O)c1; cell line = coculture, Caco-2, THP-1; assay = ELISA; setting = 50 ng/mL, 8 h, together with: LPS, IFNγ, ATP; scale = reference: untreated control; endpoint = IL-1β level; value = 5.8 ± 8.1 fold change
SMILES = C[C@H](NP(=O)(OC[C@H]1O[C@@H](n2ccc(N)nc2=O)C(F)(F)[C@@H]1O)Oc1ccccc1)C(=O)OCc1ccccc1 (stereo partly shown); cell line = HEK293T ATF4-FLuc reporter; assay = ATF4 reporter gene, activator, luciferase reporter; endpoint = EC50; value = 1.34 µM
SMILES = C[C@@]12C(=O)OC(=O)[C@]1(C)[C@H]1CC[C@@H]2O1; cell line = THP-1; assay = pyroptotic LDH release; setting = 2 µM, 40 min, together with: LPS then nigericin; endpoint = inhibition; value = -22.3%
SMILES = COc1cnc2cccc(N3CCc4c(cc(Cn5ccnc5C)cc4-c4cn(C)nc4C(F)(F)F)C3=O)c2c1; cell line = NCI-H747; assay = cell growth, inhibitor; setting = 120 h; endpoint = EC50; value = > 30 µM
SMILES = COc1cc(/C=C/C(=O)N2CCC=CC2=O)cc(OC)c1OC; cell line = MDA-MB-468; assay = qRT-PCR, item: CIAP; setting = 30 µM, 6 h; scale = reference: time zero; endpoint = mRNA expression; value = 47.6 ± 6.7%
SMILES = Cn1c(Nc2nc3ccc(C(F)(F)F)cc3s2)nc2cc(C(=O)NCCOCCO)ccc21; cell line = SH-SY5Y; assay = RNA-seq, item: SERPINE1 mRNA; setting = 5 µM, 5 h; scale = reference: untreated cells; endpoint = fold change; value = 3.91
SMILES = CCOC(=O)CSc1nc(-c2ccc(Cl)cc2)c2c(NC(=O)c3ccccc3)nnc-2[nH]1; cell line = RXF 393; assay = SRB; setting = 10 µM, NCI60 single-dose screen; scale = reference: untreated; endpoint = cell growth; value = 119%
SMILES = Clc1nc(NCc2ccco2)c2[nH]cnc2n1; cell line = FD iPSC-derived cardiomyocytes; assay = alternative splicing, RNA-seq, item: CHN1 exon chr2(-):174875787-174875865; setting = unit not given; scale = reference: DMSO minus compound; endpoint = ΔPSI; value = -0.288
SMILES = COC(=O)CNC(=O)C(=O)OC; cell line = MDA-MB-231, ARNT knockout or control; assay = immunoblot; setting = concentration not given, 12 h; endpoint = H3K4me3 level; value = increased
SMILES = Cc1nc(OCCCCCN2CCCCC2)cc(-c2ccc(F)cc2)n1; cell line = HEK293T ATF4-FLuc reporter; assay = ATF4 reporter gene, activator, luciferase reporter; endpoint = EC50; value = > 9.96 µM
SMILES = NCCOc1cc(C(=O)Nc2cc(OCCN)c3ccccc3n2)nc(C(=O)Nc2cc(OCCN)c3ccccc3n2)c1; cell line = THP-1; assay = pyroptotic LDH release; setting = 2 µM, 40 min, together with: LPS then nigericin; endpoint = inhibition; value = 36.8%
SMILES = CC/C(=N\NC(=O)NCc1cccc(O)c1)c1ccc(O)c(C)c1O; cell line = SK-OV-3; assay = Western blot, item: phospho-YAP; setting = 10 µM, 3 h, 3D gellan gum culture, unit not given; scale = reference: total YAP; endpoint = protein level; value = 0.18 ± 0.12
SMILES = O=C(O)Cc1cccnc1; cell line = THP-1; assay = pyroptotic LDH release; setting = 2 µM, 40 min, together with: LPS then nigericin; endpoint = inhibition; value = 8.62%
SMILES = CC(C)C[C@H](NC(=O)[C@@H](NC(=O)c1cccc(-c2ccccc2)n1)[C@@H](C)O)B(O)O; cell line = HEK293T ATF4-FLuc reporter; assay = ATF4 reporter gene, activator, luciferase reporter; endpoint = EC50; value = 0.0773 µM
SMILES = COc1cc(O)c2c(=O)c(O)c(-c3ccc(O)c(O)c3)oc2c1; cell line = Caco-2/THP-1 co-culture; setting = concentration not given, together with: LPS 50 ng/mL; endpoint = kynurenine level; value = 133 ± 11.9 % change
SMILES = CCCC(=O)O[C@]1(C(=O)CCl)[C@@H](C)C[C@H]2[C@@H]3CCC4=CC(=O)C=C[C@]4(C)[C@@]3(F)C(=O)C[C@@]21C; cell line = HEK293T ATF4-FLuc reporter; assay = ATF4 reporter gene, activator, luciferase reporter; endpoint = EC50; value = > 9.96 µM
SMILES = CCc1c(-c2ccccc2)c(-c2ccccc2)nn1-c1ccccc1-c1cccc(OCC(=O)O)c1; cell line = mouse osteoclasts; assay = RT-qPCR, item: Lilrb4a; setting = 1 µM, unit not given, together with: M-CSF plus RANKL; scale = reference: bone marrow macrophages; endpoint = mRNA level; value = 0.171 and 0.0825 and 0.155
SMILES = COc1cc(CCC(=O)O)ccc1O; cell line = Caco-2/THP-1 co-culture; assay = TEER; setting = concentration not given, together with: LPS 250 ng/mL; scale = reference: control; endpoint = transepithelial electrical resistance; value = 83.1 ± 11.2%
SMILES = C1CCC(C(CC2CCCCN2)C2CCCCC2)CC1 (stereo not shown); cell line = human iPSC cardiomyocytes; assay = plate-normalised; setting = concentration not given, hit retest; scale = reference: vehicle controls, SDs below control; endpoint = MyBP-C level change; value = 14.4 SD
SMILES = O=C(O)CCc1ccc(O)c(O)c1; cell line = Caco-2/THP-1 co-culture; setting = concentration not given, together with: LPS 1000 ng/mL; endpoint = kynurenine level; value = 113 ± 5.4 % change
SMILES = C=CC(=O)Nc1cc(Nc2nccc(Nc3cc(Cl)c(F)cc3C(C)(C)O)n2)c(OC)cc1N1CC[C@@H](N(C)C)C1; cell line = NCI-H2073 EGFR SVD knock-in; assay = cell proliferation, CellTiter-Glo; scale = reference: knock-in over parental NCI-H2073; endpoint = selectivity ratio; value = 0.8
SMILES = CCCCCCCC(=O)c1c(O)cc(O)cc1CC(=O)OCC; cell line = THP-1; assay = pyroptotic LDH release; setting = 2 µM, 40 min, together with: LPS then nigericin; endpoint = inhibition; value = 9.92%
SMILES = COc1cc2ncnc(Nc3ccc(F)c(Cl)c3)c2cc1NC(=O)/C=C/CN1CCCCC1; cell line = HEK293T ATF4-FLuc reporter; assay = ATF4 reporter gene, activator, luciferase reporter; endpoint = EC50; value = > 9.96 µM
SMILES = COc1cc(N2CCC(N3CCN(C)CC3)CC2)ccc1Nc1ncc(Cl)c(Nc2ccccc2P(C)(C)=O)n1; cell line = Ba/F3 EML4-ALK variant 1 L1196Q; assay = cell viability; endpoint = Emax; value = 100%
SMILES = COCCN(C)CCOc1ccc2[nH]c(-c3cc4ccccc4[nH]c3=O)cc2c1; cell line = HEK293T ATF4-FLuc reporter; assay = ATF4 reporter gene, activator, luciferase reporter; endpoint = EC50; value = 3.26 µM
SMILES = CCCCN1CCN(c2ccc3[nH]c(-c4ccc5[nH]c(-c6ccc(OCC)c(OCC)c6)nc5c4)nc3c2)CC1; cell line = OVCAR-8; assay = SRB; setting = 10 µM, 48 h; endpoint = growth percent; value = -11.9%
SMILES = Cn1cc(-c2ccc(-c3cncc(Cl)c3N3CCC4(CCNC4=O)CC3)cc2)cn1; cell line = COLO 205; assay = gene expression, microarray, item: EXD3 mRNA; setting = concentration not given, 2 h; scale = reference: untreated cells; endpoint = log2 fold change; value = 5.15
SMILES = CC(=O)OCC1=CO[C@@H](OC(=O)CC(C)C)[C@H]2C1=C[C@H](OC(=O)CC(C)(C)OC(C)=O)[C@]21CO1; cell line = THP-1; assay = pyroptotic LDH release; setting = 2 µM, 40 min, together with: LPS then nigericin; endpoint = inhibition; value = 72.6%
SMILES = Cc1cc(Nc2ncc(Cl)c(Nc3ccccc3S(=O)(=O)C(C)C)n2)c(OC(C)C)cc1C1CCNCC1; cell line = CLB-BAR; assay = phosphoproteomics LC-MS/MS, item: GNAS phosphorylation; setting = 200 nM, 60 min; scale = reference: untreated; endpoint = log2 fold change; value = -1.63
SMILES = O=C(/C=C/C=C/C=C/C1CCCCC1)NC1=C[C@@](O)(/C=C/C=C/C=C/C(=O)NC2=C(O)CCC2=O)[C@@H]2O[C@@H]2C1=O; cell line = hec108; assay = cell growth, inhibitor, CellTiter-Glo luminescence; setting = 78 h; scale = reference: day 0 cell count; endpoint = GI50; value = 23.5 µM
SMILES = CCCCc1nc(Cl)c(CO)n1Cc1ccc(-c2ccccc2-c2nn[nH]n2)cc1; cell line = human PBMC; assay = RNA-seq, item: MN1 mRNA; setting = 10 µg/mL, 24 h; scale = reference: untreated control; endpoint = log2 fold change; value = 1.81
SMILES = Nc1ncnc2c1ncn2[C@@H]1O[C@H](COP(=O)(O)O)[C@@H](O)[C@H]1O; cell line = THP-1; assay = pyroptotic LDH release; setting = 2 µM, 40 min, together with: LPS then nigericin; endpoint = inhibition; value = 5.18%
SMILES = CCCCN1C[C@H](O)[C@@H](O)[C@@H](O)[C@H]1CO; cell line = sample BB patient fibroblasts; assay = Gb3 level lowering, LC-MS/MS, item: Gb3 d18:1/18:0; setting = 216 h; endpoint = IC50; value = 17 µM

A few entries again:
SMILES = CN(Cc1ccc(S(=O)(=O)N2CCOCC2)cc1)c1ccc2c3c(cccc13)C(=N)N2; cell line = HEK293T ATF4-FLuc reporter; assay = ATF4 reporter gene, activator, luciferase reporter; endpoint = EC50; value = 1.94 µM
SMILES = CCCCN1C[C@H](O)[C@@H](O)[C@H](O)[C@H]1CO; cell line = THP-1; assay = pyroptotic LDH release; setting = 2 µM, 40 min, together with: LPS then nigericin; endpoint = inhibition; value = 6.54%
